Assay results from different studies.
Lines come from different studies, so protocols differ. Values joined by “and” are separate records of one study, mostly repeats; a detail may differ. ± marks the error that the study gave.

CC(=O)O[C@H]1C(=O)[C@@]2(C)[C@H]([C@H](OC(=O)c3ccccc3)[C@]3(O)C[C@H](OC(=O)[C@H](O)[C@@H](NC(=O)c4ccccc4)c4ccccc4)C(C)=C1C3(C)C)[C@]1(OC(C)=O)CO[C@@H]1C[C@@H]2O
viability (CHP-212 parental; SRB; 0.001524 µM): 90.4%

O=C(CBr)Nc1ccc(OS(=O)(=O)C2CC3OC2C(c2ccc(O)cc2)=C3c2ccc(O)cc2)cc1 (stereo not shown)
IC50 (MCF-10A; cell viability; 72 (unit not given)): 5.16 ± 0.88 µM

C#Cc1cccc(Nc2ncnc3cc(OCCOC)c(OCCOC)cc23)c1
viability (HPrEC normal prostate epithelial cells; MTT; 1.6 µg/mL, 2% serum): 69.2%

CNC(=O)c1ccc(-c2cnc3ncc(Cc4ccc5ncccc5c4)n3n2)cc1F
alkaline phosphatase increase incidence (all grades) (CTCAE v4.0, any causality; human gastric cancer patients; oral, 600 mg twice daily, expansion cohort at RP2D): 0%

C[C@]12CC[C@@H]3c4ccc(O)cc4C[C@@H](CCCCCCCCC[S+]([O-])CCCC(F)(F)C(F)(F)F)[C@H]3[C@@H]1CC[C@@H]2O (stereo partly shown)
viability (MCF7; CCK-8; 100 nM; reference: untreated): 45.2% and 54.8% and 49.5%

CC(C)=CC(=O)Nc1ccc(C2=C(c3ccc(O)cc3)C3OC2CC3S(=O)(=O)Oc2ccccc2)cc1 (stereo not shown)
IC50 (MCF-10A; cell viability; 72 (unit not given)): 11.2 ± 0.15 µM

Cc1cc(C(=O)NC(C)(C)COc2cccc3c2C(N)=NS(=O)(=O)N3)cc(C)n1
cytotoxicity (human peripheral blood lymphocytes; CBPI, preliminary test; 20 µg/mL, 4 h; reference: vehicle control): 1%

COc1cccc(-c2n[nH]c(SCc3ccccn3)n2)c1OC
binucleated cells with micronuclei (CHO-WBL; 200 µg/mL, 3 h, without S9): 1.4%

CCCCCCNc1nc(NC2CCN(C)CC2)c2cc(OC)c(OC)cc2n1
EC50 (Toxoplasma gondii; tachyzoite growth, luciferase; ME49-Fluc, type II): 2.68 µM

O=C(CCl)Nc1ccc(OS(=O)(=O)C2CC3OC2C(c2ccc(O)cc2)=C3c2ccc(O)cc2)cc1 (stereo not shown)
IC50 (MCF-10A; cell viability; 72 (unit not given)): 15.3 ± 1.93 µM

CC(C)C[C@H](NC(=O)[C@H](Cc1ccccc1)NC(=O)c1cnccn1)B(O)O
viability (CHP-212 parental; SRB; 0.004572 µM): 99.7%

Cc1cc(Nc2ccc(S(F)(F)(F)(F)F)cc2)n2nc(C(C)(F)F)nc2n1
Cmax (Plasmodium falciparum; LC-MS/MS; malaria patients, plasma; oral, 400 mg): 7030 ng/mL

COc1cccc2c1C(=O)c1c(O)c3c(c(O)c1C2=O)C[C@@](O)(C(=O)CO)C[C@@H]3O[C@H]1C[C@H](N)[C@H](O)[C@H](C)O1
viability (CHP-212 parental; SRB; 0.04115 µM): 55.5% and 52.2%

CC(=NNC(=O)COc1ccc2c(C)c(Cc3ccccc3)c(=O)oc2c1C)c1ccc(Br)cc1
viability (HPrEC normal prostate epithelial cells; MTT; 0.2 µg/mL, 2% serum): 93.3%

Nc1ccc(C2=C(c3ccc(O)cc3)C3OC2CC3S(=O)(=O)N(CC(F)(F)F)c2ccc(O)cc2)cc1 (stereo not shown)
IC50 (MCF-10A; cell viability; 72 (unit not given)): 32.3 ± 0.66 µM

NS(=O)(=O)C#Cc1ccccc1
EC50 (Toxoplasma gondii; parasite growth; HFF, bradyzoite, alkaline-induced): 19.6 µM

Excerpt of the above:
CC(C)=CC(=O)Nc1ccc(C2=C(c3ccc(O)cc3)C3OC2CC3S(=O)(=O)Oc2ccccc2)cc1 (stereo not shown)
IC50 (MCF-10A; cell viability; 72 (unit not given)): 11.2 ± 0.15 µM
